Assay results from different studies.
Every numbered part comes from another study and shows a few of its results, in no order. Changes are numbered by the printed parent chain.

Set 1
Target: ATF2, bZIP domain (human)
Method: DHFR protein complementation
Matrix: yeast
Setting: single substitutions, most at no-binding floor
Baseline: wild-type JUN-FOS pair
Reading: higher = stronger binding
Starting sequence: JUN, bZIP domain (human); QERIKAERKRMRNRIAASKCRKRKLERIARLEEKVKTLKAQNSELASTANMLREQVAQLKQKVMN; partner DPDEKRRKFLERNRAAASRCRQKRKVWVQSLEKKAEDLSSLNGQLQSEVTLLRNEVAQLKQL
Substitution | binding fitness
Q41W | -1.47 natural log
V56N | -1.58 natural log
E44L | -1.45 natural log
L31I | -1.53 natural log
K36I | -1.4 natural log
Q41K | -1.43 natural log
L38D | -1.53 natural log
K39G | -1.47 natural log
R30H | -1.37 natural log
L52D | -1.61 natural log
L38A | -1.39 natural log
A46G | -1.37 natural log
L38H | -1.49 natural log
E33P | -1.52 natural log
V35T | -1.4 natural log
V56Y | -1.45 natural log

Set 2
Target: CCNB3, cyclin fold, Cln2 fusion (human)
Method: yeast growth competition, sequencing
Matrix: yeast
Setting: weak parent motif
Baseline: not given
Reading: higher = stronger binding
Starting sequence: RBL1 docking peptide (human); GSAKRRLFGEDPP; partner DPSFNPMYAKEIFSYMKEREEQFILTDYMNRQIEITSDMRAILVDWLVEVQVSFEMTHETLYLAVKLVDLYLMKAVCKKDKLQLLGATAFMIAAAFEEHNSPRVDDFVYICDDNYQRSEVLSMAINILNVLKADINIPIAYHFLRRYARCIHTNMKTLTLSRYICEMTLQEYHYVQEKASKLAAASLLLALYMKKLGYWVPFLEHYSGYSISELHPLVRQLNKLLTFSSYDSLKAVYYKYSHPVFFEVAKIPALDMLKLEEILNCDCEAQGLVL
Substitution | normalised enrichment score
GSAKRRLFMEDPP [G9M] | 1.05
GSAKRRLLGEDPP [F8L] | 0.0655
GSCKRRLFGEDPP [A3C] | 1.11
GSRKRRLFGEDPP [A3R] | 0.338
GIAKRRLFGEDPP [S2I] | 0.544
GSAKRRLFREDPP [G9R] | 0.61
QSAKRRLFGEDPP [G1Q] | 0.565
LSAKRRLFGEDPP [G1L] | 1.28
GSLKRRLFGEDPP [A3L] | 0.52
GSAKRRLVGEDPP [F8V] | 0.146
GSAKRRLFGIDPP [E10I] | 0.778
GSAKRRYFGEDPP [L7Y] | 0.112
GSAKRRLFGNDPP [E10N] | 0.595
GSAKRRQFGEDPP [L7Q] | 0.18
GSEKRRLFGEDPP [A3E] | 0.48
GSAKRRLFGESPP [D11S] | 0.965
GLAKRRLFGEDPP [S2L] | 0.41
GSAKRRLFLEDPP [G9L] | 1.09
GSAKRWLFGEDPP [R6W] | 0.192
GSAKRRDFGEDPP [L7D] | 0.022
GSAKRGLFGEDPP [R6G] | 0.0436
GSAKKRLFGEDPP [R5K] | 0.172
GPAKRRLFGEDPP [S2P] | 0.361
GSAKRRLFGEDCP [P12C] | 0.319
GSAKRRLFGEDLP [P12L] | 0.322

Set 3
Target: RING finger protein unkempt homolog, zinc fingers 1-6, GST-SBP tag (UNK, Homo sapiens, UniProt Q9C0B0, residues 30-357)
Chain of UniProt Q9C0B0 (30-357, looked up): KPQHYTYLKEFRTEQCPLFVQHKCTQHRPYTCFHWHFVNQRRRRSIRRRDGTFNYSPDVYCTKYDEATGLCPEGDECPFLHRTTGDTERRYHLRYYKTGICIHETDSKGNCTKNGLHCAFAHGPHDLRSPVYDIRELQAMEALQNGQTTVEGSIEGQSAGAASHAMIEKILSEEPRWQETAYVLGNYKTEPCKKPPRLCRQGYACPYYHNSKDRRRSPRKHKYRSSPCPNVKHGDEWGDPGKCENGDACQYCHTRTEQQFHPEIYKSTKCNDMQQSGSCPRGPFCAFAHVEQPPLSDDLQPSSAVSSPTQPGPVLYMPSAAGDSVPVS
Method: RNA Bind-n-Seq
Form: RNA
Matrix: in vitro
Tested at: not given
Setting: RNA with constant flanks, human and mouse sites, ends assumed
Baseline: input RNA pool
Reading: higher = stronger binding
Constant ends, left off below: GGGAGUUCUACAGUCCGACGAUC … CAACAGAGGAUUGAGCAUCA
Strand | bound/input enrichment [ratio]
GAAUGCAGUUUUCCUUGAGAUACCUGUUUUAAAAGGUUUUUCAGACAAUUUUGCAGAAAGGUGCAUUGAUUCUUAAAUUCUCUCUGUUGAGAGCAUUUCAGCCAGAGGACUUUGGAACUG | 0.189
CGCUGCCGCGUGGGUCAGUGGGUACGCAUGGAGAACGUGACAGUGCUGGGUGAGGACGUCAUAGUUAAUGAUGAGCUCUACCUCAACGGAGCCAGCGUGCUGCCCCACAAGUCUAUUGGC | 0.588
UCUCCUGUCCCCUCCCCUCCCCACCCCAUCUAUUAAUAUUAUUCUUUUGAAGAUUCUUCGUUGUCAAGCCGCCAAAGUGGAGAGUGCGAUUGCAGAAGGGGGUGCUUCUCGUUUCAGUGC | 1.44
AUUUAUAUUUGUGAAAAAUGCCACUGUCCUAGUGAUUUCUGAUGUAAAUAAUGUUGUUUAUAUAGUAUGUAUUAAAUUUUCCUACAUUGUAAAACUGCUGUACUUUUGAUUCUUGUAUAU | 1.43
UGGACCUAGAUGAUGAGUUGUACCUGGGUGGCUUGCCAGAAAAUAAGGCUGGCCUAGUCUUCCCUACCGAGGUGUGGACUGCUCUGCUCAACUACGGCUACGUGGGCUGCAUCCGGGACC | 0.219
GAUAUGAGCAUAGAACAGAAGUUACCAAGAAAGCCUAAAACAGACAAAUUUCAGGUACUUGCUAAGUCACAUGCACAUAAAUCAGAAGCCCUGCACAGUAAAGUUAGGGAGAAAAAGAAU | 0.167
UUUGUUUUCAUGUUAAGCACGCGUGCUGGUGGUCUUGGCAUCAAUCUUGCGACUGCUGAUGUAGUAAUUUUGUAUGAUUCUGAUUGGAAUCCCCAAGUAGAUCUUCAGGCUAUGGACCGA | 0.517
CAGUUGGAUGCCAGUAUUCCAGUCACUUUUACAAAGGACAAUAGAGUUCAUAUUGGACCCAAAAUGGAAAUCCGAGUAGUCACAUUAGGAUUAGAUGGUGCUGGAAAAACUACCAUUUUG | 4.84
GGACGCGCAGACACGUUGUCUCUUCCUUCUUUUUGCCCCCUUUCCCCUGCUCAGGGCCUCGCUGGGAGGCGAGUGCUCCUCCUCAGGCCGCGGCUUCCAGAAGUAGCCUCGGAGUCCCGG | 0.498
UCUAUAGCUACCCUACUUCUUCGAAUAGAGAAAGAGGAAUUGGAUAUGAAAGGAAGUGGUUUCUAUGUUUCUCUGGAGUGGGUCACUAUCAGUAAGAAAAAUCAAGAUAAUAAAAAAUAU | 0.357
AGAGAACAACACAUCCGGAGAGACAAAGCCACCAGCAACAUCUGCACGGCUCAGGCCCUUUUAGCCAACAUGGCUGCCAUGUUCGCCAUUUACCAUGGAUCCCAGGGGCUGAAGCACAUU | 0.255

Set 4
Target: Histone acetyltransferase KAT6A, winged helix 1, GST fusion (KAT6A, Homo sapiens, UniProt Q92794, residues 1-85)
Method: protein binding microarray
Form: double-stranded DNA, one strand shown
Matrix: in vitro
Tested at: not given
Setting: 8-mer, flanks averaged, mean of 2 arrays, mostly near background
Baseline: not given
Reading: higher = stronger binding
Target sequence (chain): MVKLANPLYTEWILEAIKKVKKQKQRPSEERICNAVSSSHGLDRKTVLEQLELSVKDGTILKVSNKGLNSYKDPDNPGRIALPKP
Strand | E-score
CAACGCTA | 0.101
CTTTATCA | -0.268
AACGATCT | -0.0384
TCAATTAA | -0.0421
CACGACTG | 0.0949
ACCCCTTA | -0.0799
AATCGAGG | -0.189
CGCGGAGC | 0.357
ACTAACCT | -0.114
CACACAGC | -0.0359
CTTTCCTA | -0.0157
ATTACGGC | 0.356
GCCAACGA | -0.0354
GGTTAGTA | 0.0335
ATATGAAT | -0.106
GAGCGCGA | 0.29
CAATCCCC | -0.0962
GCTGGCTA | -0.166
AACGGTGG | 0.00504
CGAACGGA | 0.208
GGAGTACC | 0.0323
ATGTAGTC | -0.255
CTCTTAAG | -0.131
CCCGAGGA | 0.00524
AGGCTGCA | -0.224

Set 5
Target: Ras GTPase-activating protein-binding protein 1, full length (G3BP1, Homo sapiens, UniProt Q13283)
Chain of UniProt Q13283 (whole entry, looked up): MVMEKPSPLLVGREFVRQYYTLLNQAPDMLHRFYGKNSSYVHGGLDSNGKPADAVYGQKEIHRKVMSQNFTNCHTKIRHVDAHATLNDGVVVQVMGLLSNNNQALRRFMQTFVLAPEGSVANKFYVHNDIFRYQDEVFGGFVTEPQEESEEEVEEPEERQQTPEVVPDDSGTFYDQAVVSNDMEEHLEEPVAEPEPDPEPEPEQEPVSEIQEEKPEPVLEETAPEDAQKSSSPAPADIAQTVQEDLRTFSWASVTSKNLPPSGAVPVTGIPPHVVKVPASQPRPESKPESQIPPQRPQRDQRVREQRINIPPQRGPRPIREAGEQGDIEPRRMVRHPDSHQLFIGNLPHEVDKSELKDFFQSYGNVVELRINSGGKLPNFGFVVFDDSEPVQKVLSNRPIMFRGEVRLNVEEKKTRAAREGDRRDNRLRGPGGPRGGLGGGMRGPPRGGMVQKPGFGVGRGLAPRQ
Method: RNA Bind-n-Seq
Form: RNA
Matrix: in vitro
Tested at: 200 nM
Setting: whole 134-nt RNA, ends assumed
Added: 150 mM KCl
Baseline: input library
Reading: higher = stronger binding
Constant ends, left off below: GGGAGUUCUACAGUCCGACGAUC … UGGAAUUCUCGGGUGUCAAGG
Strand | log2 enrichment
GUCCUGUGCUACACAUCGUAUGUACCGAAUCGGUUUUUGGGGUUUUUGGGGUUUUUGGGAAAGUAUUAUGUUACGCCGUUCGGAUCUGCA | -0.555
UCAAGUCCUGUGCUACACAUCGUAUGUACCGAAUCGGUUUGGUUUGGGUUUGGGGAAAGUAUUAUGUUACGCCGUUCGGAUCUGCACUUC | -0.674
UCCUGUGCUACACAUCGUAUGUACCGAAUCGGGGUUUUUUUGGGGAGGGGAAAAAGGGGAAAGUAUUAUGUUACGCCGUUCGGAUCUGCA | 0.446
UCAAGUCCUGUGCUACACAUCGUAUGUACCGAAUCGGUUUGGGUUUGGGGUUUGGAAAGUAUUAUGUUACGCCGUUCGGAUCUGCACUUC | -0.775
CAAGUCCUGUGCUACACAUCGUAUGUACCGAAUCGGUUUUUGGUUUUUGGUUUGGAAAGUAUUAUGUUACGCCGUUCGGAUCUGCACUUC | -1.1
UUAAGUGUAUUGGAGCCCCAAGUUCUCAAUUAUUUGAGCCUCCGGGCGACAGAGCAAGAAAAGGUGAGUGGAUAGCGCAGGCAUAUUGGU | 0.311
CUCAAGUCCUGUGCUACACAUCGUAUGUACCGAAUCGGUUUUUUUGGUGGUGGAAAGUAUUAUGUUACGCCGUUCGGAUCUGCACUUCCA | -0.384
CACAGACAACACGCACCCACACAGACACAAAGGGAAGGGGUUGGGAUGGGGACAGGGUGCACAGCAGGGCGGGGUAGGACCCCAGCCCCU | 1.98
CUGUGCUACACAUCGUAUGUACCGAAUCAAAGUGUGUGUGUGUGUAAAGUGUGUGUGUAAAAAAGUAUUAUGUUACGCCGUUCGGAUCUG | -0.516
UUCUGGUCUGCUCACCAGAGGUUCUUCAAAUACUUAUGCAUAGCAUCCAAAGUUAAAAGGGUUGUGCAACUAGCUCGAGAGGAAAUCAAG | -1.7
UAGGAAAACCGUCUUCAGAUACAGUCCCUAAGCCCAAGAGAGCCCCAAAACAGAAGAAAGUAGUAGAGGCUGUAAACUCUGACUCGGAUU | 0.202
UGGCCCUGGUGGCAUGCGGGGAGGAAGAGGUGGCCUCAUGGAUCGUGGUGGUCCCGGUGGAAUGUUCGGAGGUGGCCGUGGUGGAGACAG | 0.371
CCUGUGCUACACAUCGUAUGUACCGAAUCGGGGUUUUUUGGGUUUUUUGGGGUUUUUUGGAAAGUAUUAUGUUACGCCGUUCGGAUCUGC | -0.577
UCAAGUCCUGUGCUACACAUCGUAUGUACCGAAUCGGUUGGGUUGGGGUUGGGGAAAGUAUUAUGUUACGCCGUUCGGAUCUGCACUUCC | 0.635

Excerpt of the above (set 2):
Substitution | normalised enrichment score
GSAKRRLFGIDPP [E10I] | 0.778
GSAKRRYFGEDPP [L7Y] | 0.112
GSAKRRLFGNDPP [E10N] | 0.595
GSAKRRQFGEDPP [L7Q] | 0.18
GSEKRRLFGEDPP [A3E] | 0.48
GSAKRRLFGESPP [D11S] | 0.965
